# Results from different studies.
# Lines come from different studies, so protocols differ. Numbers after ± are the reported error.
# UCHL1: Ubiquitin carboxyl-terminal hydrolase isozyme L1 (UCHL1, Homo sapiens, UniProt P09936)
# Sequence of UniProt P09936 (whole entry, looked up): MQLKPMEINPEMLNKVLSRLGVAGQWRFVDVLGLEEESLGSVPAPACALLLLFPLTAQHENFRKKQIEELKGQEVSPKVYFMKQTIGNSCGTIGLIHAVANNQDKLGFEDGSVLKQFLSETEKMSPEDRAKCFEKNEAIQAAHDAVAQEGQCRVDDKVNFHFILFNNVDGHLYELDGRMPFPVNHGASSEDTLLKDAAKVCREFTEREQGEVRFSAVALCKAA
# Sequence of UniProt Q07794 (whole entry, looked up): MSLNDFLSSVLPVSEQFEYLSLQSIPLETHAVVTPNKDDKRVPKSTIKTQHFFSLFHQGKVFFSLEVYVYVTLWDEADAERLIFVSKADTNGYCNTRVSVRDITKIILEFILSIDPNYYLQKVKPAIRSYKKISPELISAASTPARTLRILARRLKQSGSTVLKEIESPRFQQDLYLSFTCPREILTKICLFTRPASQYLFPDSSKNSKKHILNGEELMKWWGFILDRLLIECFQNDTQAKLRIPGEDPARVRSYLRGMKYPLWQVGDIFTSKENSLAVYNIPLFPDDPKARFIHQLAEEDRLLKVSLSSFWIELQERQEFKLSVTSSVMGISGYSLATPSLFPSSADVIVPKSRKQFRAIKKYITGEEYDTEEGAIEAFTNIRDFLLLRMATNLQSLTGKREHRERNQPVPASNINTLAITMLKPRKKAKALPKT
SMILES,tested on,assay,system,conditions,endpoint,value
COCCOc1cnc2ccn([C@H](C)c3nnc4c(F)cc(-c5cnn(C)c5)cn34)c(=O)c2c1,,,"patients, plasma","oral, 250 mg twice daily, day 1, 500 per day",Cmax,2540 ng/mL
COc1ncc(-c2nc3c(n2C(C)C)[C@H](c2ccc(Cl)cc2)N(c2cc(Cl)cn(C)c2=O)C3=O)c(OC)n1,,LC-MS/MS,"human, plasma","oral, 100 mg, cycle 1 day 1, high-dose arm",Cmax,663 ng/mL
COc1ccc(C[C@@H](C)[C@@H](C)Cc2ccc(OC)c(OC)c2)cc1OC,,,"beagle dog female, plasma","oral, 1000 mg/kg/day, day 1",Cmax,2190 ± 538 ng/mL
COc1ccc(-n2nc(C(N)=O)c3c2C(=O)N(c2ccc(N4CCCCC4=O)cc2)CC3)cc1,,,"healthy mixed-breed dogs, plasma","oral, 0.5 mg/kg every 12 h for 7 days",Cmax,822 ± 296 ng/mL
CCc1nc(C(N)=O)c(Nc2ccc(N3CCC(N4CCN(C)CC4)CC3)c(OC)c2)nc1NC1CCOCC1,,,"Japanese patients, plasma","oral, 80 mg, cycle 1 day 28, multiple doses, mean",Cmax,206 ng/mL
N=C(N/N=C/c1ccc2c(c1)OCO2)SC1CC(=O)N(c2ccc(Br)cc2)C1=O (stereo not shown),"Histone acetyltransferase RTT109, with Vps75 (Saccharomyces cerevisiae, UniProt Q07794)","enzyme activity, inhibitor, HTS, CPM-based, dose response",,,IC50,> 125 µM
Cl.[2H]C([2H])([2H])CC(=O)c1cnc(NC(=O)C2CC2)cc1Nc1cccc(-c2ncn(C([2H])([2H])[2H])n2)c1OC,,geometric mean,human,"oral, 10 mg once daily, day 1, fasted, liquid, multiple dose",Cmax,98.1 ng/mL
Cn1c(C(F)(F)F)cc(=O)n(-c2cc(Oc3cccnc3OCC(=O)O)c(Cl)cc2F)c1=O,,,"beagle dog, female, plasma","oral capsule, 300 mg/kg/day epyrifenacil, day 1, 90-day study",Cmax,7300 ng/mL
C[C@H]1CN(C(=O)CC#N)[C@]12CCN(c1ncnc3[nH]ccc13)C2,,,"healthy adults, plasma","oral, 12 mg single dose, median",Cmax,101 ng/mL
CCc1ccc(NC(=O)C(C#N)=Cc2cccnc2)cc1,UCHL1,"covalent, intact protein LC-MS",,12.5 µM,labelling,32.4%
Cc1nc(-c2cnc(NC(C)C)n(C)c2=O)ccc1Oc1ccnc(-c2cnn(C)c2)c1,,,"Beagle dog, male, plasma","oral, 30 mg/kg, crossover study, mean",Cmax,7290 ng/mL
O=C(CCl)Nc1ccccc1Sc1ccc(Cl)cc1,UCHL1,"covalent, intact protein LC-MS",,12.5 µM,labelling,10.2%
COc1cc2c3c(n(CCCN4CCOCC4)c(=O)c2cc1OC)-c1cc2c(cc1C3=O)OCO2,,,"beagle dog, female, plasma","intravenous infusion, 50 mg/m^2, 1 h infusion, vehicle 1",Cmax,275 ± 43 ng/mL

# A few entries again:
SMILES,tested on,assay,system,conditions,endpoint,value
CCc1ccc(NC(=O)C(C#N)=Cc2cccnc2)cc1,UCHL1,"covalent, intact protein LC-MS",,12.5 µM,labelling,32.4%
